Experimental data of several laboratories.
Lines come from different studies, so protocols differ. ± gives the spread as reported. Converted amounts (≈) assume the structure as drawn.

Molecule	assay	system	conditions	how to read	measurement	result
C[C@](N)(Cc1ccc(O)c(O)c1)C(=O)O		supercritical carbon dioxide	5 h, 333 K, 30 MPa, density 830.5 kg/m3		solubility	0.397 mg/mL (≈ 1880 µM)
CC(C)(Sc1ccncc1-c1ccc(C#N)c2ccccc12)C(=O)O		human, male, Japanese, plasma	oral, 15 mg, day 6, fed, single dose		t1/2	6.91 h
CC(O)CCc1ccc(O)cc1 (stereo not drawn)		female C57BL/6J mice, brain	oral, 200 mg/kg, 0 to 12 h, low-fat diet		AUC(0-t)	19.4 ± 3.34 nmol·min/g
C[C@H]1CO[C@@H]2Cn3cc(C(=O)NCc4ccc(F)cc4F)c(=O)c(O)c3C(=O)N12		human, plasma	oral, 30 mg, 24 h, single dose, fasted, healthy volunteers		concentration	1.66 µg/mL
CC(C)(C)n1nc(Cc2cccc(Cl)c2)c2c(N)ncnc21		Swiss Albino mouse, male, plasma	oral, 10 mg/kg	relative to: intravenous 3 mg/kg	oral bioavailability	25 to 30%
O=C1N=C(N2CCOCC2)CN1c1ccc(Cl)cc1		beagle dog, both sexes, plasma	oral, 30 mg/kg, tablets, fasted, day 5		terminal half-life	1.39 h
Oc1ccc(/C=C/c2cc(O)cc(O)c2)cc1	in situ intestinal perfusion	Sprague-Dawley rat, duodenum	25 µg/mL, 120 min, pH 7.4		effective permeability	27.033 ± 0.000282 nm/s
CC1=C2C[C@H]3[C@@H](CC[C@@H]4C[C@H](NS(C)(=O)=O)CC[C@@]43C)[C@@H]2CC[C@@]2(C1)O[C@@H]1C[C@H](C)CN[C@H]1[C@H]2C		patients, plasma	oral, 20 mg daily, day 22, cycle 1		Tmax	2.13 h
C=CC(N)CCC(=O)O (stereo not drawn)		male Sprague-Dawley rat, plasma	oral, 10 mg/kg, formulation 9, with: low-fat infant formula 1500 mg/kg		clearance	0.608 ± 0.01 L/h/kg
CCCOc1ccc([C@H]2CNC(=O)N2c2ccc3[nH]cnc3c2)cc1		human volunteers fasted, plasma	oral solution, 400 mg single dose, day 1, geometric mean		effective half-life	2.43 h
O=C(c1cccnc1-c1ccncc1)N1CCC(O)(Cc2ccccc2)CC1		healthy human, urine	oral, 100 mg once daily, day 1, arithmetic mean		renal clearance	3.67 mL/min
CC(=O)N[C@@H](Cc1ccccc1)C(=O)N[C@H]1CCCNC(=O)[C@H](CCCNC(=N)N)NC(=O)[C@H](Cc2c[nH]c3ccccc23)NC(=O)[C@@H](CC2CCCCC2)NC(=O)[C@@H]2CCCN2C1=O		C57BL/6J mouse, plasma	intravenous, 1 mg/kg single dose		Vss	0.0029 L
COc1ccc(S(=O)(=O)Nc2nc(-c3cccc([N+](=O)[O-])c3)c(CN3CCCCC3)s2)cc1OC		mouse wild type, brain	oral, 300 mg/kg, 5 h		concentration	0.119 µM
C=C(C)[C@@H]1CC[C@]2(NCCN3CCS(=O)(=O)CC3)CC[C@]3(C)[C@H](CC[C@@H]4[C@@]5(C)CC=C(C6=CC[C@@](CF)(C(=O)O)CC6)C(C)(C)[C@@H]5CC[C@]43C)[C@@H]12		human	oral, 320 mg once daily, day 14, multiple ascending dose		terminal half-life	22.4 h
CNC(=O)c1cc(Oc2ccc(NC(=O)Nc3ccc(Cl)c(C(F)(F)F)c3)c(F)c2)ccn1		healthy male volunteers, plasma	topical ocular, 0.75 mg twice daily	relative to: last dose over first dose	accumulation ratio of Cmax	24
Cc1nc2cccc(OCC(C)(C)C(=O)NC(C)C)c2c(N)c1C(=O)O		Sprague-Dawley rat (both sexes), plasma	dietary, 60 mg/kg/day, day 7		Tmax	3 h
Cn1ncc(Cl)c1-c1cc(C(=O)N[C@H](CN)Cc2ccc(F)c(F)c2)oc1Cl		human patients, plasma	oral, 150 mg once daily, day 15, repeat dose		effective half-life	87.9 to 129 h

Molecule	assay	system	conditions	how to read	measurement	result
CC1(C)C(=CC=C2CCCC(C=CC3=[N+](CCCCS(=O)(=O)[O-])c4ccccc4C3(C)C)=C2Cl)N(CCCCCC(=O)O)c2ccccc21	NIR fluorescence imaging	nude mouse, MCF7 xenograft	17 nmol/mouse, 2 d	relative to: Cy7	tumour fluorescence per volume	~8 fold
COc1cccc(N2CCN(C3=Nc4c(F)cccc4[C@H](CC(=O)O)N3c3cc(C(F)(F)F)ccc3OC)CC2)c1	UHPLC-MS/MS	healthy women, plasma	intravenous infusion, 480 mg single dose, 60 min infusion, HPβCD formulation		volume of distribution	86.9 ± 25.3 L
Cc1cc(=O)n(-c2ccccc2)n1C		perfused human term placental cotyledon	531 µM, 1 to 120 min, 36.5 °C, maternal to fetal, with: barusiban 1.2 µM		steady-state placental transfer	~29%
CC(C)NC[C@@H](C(=O)N1CCN(c2ncnc3c2[C@H](C)C[C@H]3O)CC1)c1ccc(Cl)cc1		human, Severe hepatic function (Child-Pugh), plasma	oral, 100 mg single dose, arithmetic mean		t1/2	75.4 h
C[C@H](N)C(=O)N[C@@H](Cc1ccccc1)C(=O)N[C@@H](C)C(=O)O		water	room temperature, pH near terminal pKa		water solubility	670 mM (≈ 206 mg/mL)
CCCCC1=NC2(CCCC2)C(=O)N1Cc1ccc(-c2ccccc2S(=O)(=O)Nc2noc(C)c2C)c(COCC)c1		human female reference subject, plasma	oral, 800 mg, population PK model		steady-state clearance	120 mL/min
CNC(=O)c1ccc(-c2cnc3ncc(Cc4ccc5ncccc5c4)n3n2)cc1F		human, moderate hepatic impairment (Child-Pugh B), plasma	oral, 200 mg single dose		Cmax (mean)	1.56 µg/mL
COC(=O)c1ccc2c(c1)NC(=O)/C2=C(\Nc1ccc(N(C)C(=O)CN2CCN(C)CC2)cc1)c1ccccc1		human moderate liver impairment, plasma	oral, 150 mg twice daily, geometric mean		AUC(tau) steady state	0.97 µg·h/mL
CCCN1CC(c2ccc(S(C)(=O)=O)cc2)=C(c2ccc(C)cc2)C1=O		healthy Chinese subjects, elderly, plasma	oral, 100 mg single dose	relative to: non-elderly subjects	AUC(0-t) increase	34%
COc1cc(/C=C/C(=O)CC(=O)/C=C/c2ccc(O)c(OC)c2)ccc1O	I-125 label	C57BL/6J mouse, hippocampus	intranasal vs intraperitoneal, 10 µg/mouse IN, 100 µg/mouse IP, 24 h	relative to: intranasal over intraperitoneal	brain uptake ratio	3.41
CC(C)[C@H](C(=O)Nc1ccc(C(=O)NO)cc1)c1ccccc1		human, tumour peripheral capsule over plasma	40 mg	relative to: pre-anaesthesia plasma	tissue/plasma ratio	53.4
Cn1c(-c2ccc(C(N)=O)cc2F)nnc1C(C)(C)Oc1c(F)cc(Cl)cc1F		young Japanese adults, plasma	oral, 50 mg single dose, day 1, high-dose multiple-dose study		Cmax median	0.681 µg/mL
des-acyl ghrelin (human)		mouse, Ghsr knockout, thalamus	intravenous, 10 min		brain/serum ratio	6.89 µL/g
Cl.Cl.NCCCn1c2c(c3ccc(N)cc3c1=O)C(=O)c1ccccc1-2		Sprague-Dawley rat, female, mammary gland	oral, 40 mg/kg/day for 3 days, 3 h after last dose, pooled samples		tissue concentration	0.29 ± 0.006 µg/g
CC(C)(O)c1ccccc1CC[C@@H](SCC1(CC(=O)O)CC1)c1cccc(/C=C/c2ccc3ccc(Cl)cc3n2)c1	rosiglitazone metabolism, inhibitor	human liver microsomes	0.02 µM, with: rosiglitazone 10 µM		inhibition	49%
CC(=O)N[C@H](C(=O)N[C@@H](CCCNC(=N)N)C(=O)N[C@H](C(=O)N[C@@H](CC(=O)O)C(=O)N[C@H](C(=O)N[C@@H](CCCNC(=N)N)C(=O)N[C@H](C(=O)N[C@@H](CC(=O)O)C(=O)N[C@H](C(N)=O)C(C)C)C(C)C)C(C)C)C(C)C)C(C)C	rotational rheometry	2% w/v aqueous solution	shear rate range 1-1000 s^-1		viscosity	2050 ± 204 Pa·s
